Literature values that unrelated publications cite.
Lines come from different studies, so protocols differ. ± gives the spread as reported.

Compound	target or system	test	test system	conditions	how to read	endpoint	result
CNC(C)C1CCC(N)C(OC2C(N)CC(N)C(OC3OCC(C)(O)C(NC)C3O)C2O)O1 (stereo not shown)	Escherichia coli	–	clinical isolate RKI-No_607/16	–	–	MIC	> 8 µg/mL
O=c1[nH]c(=O)n([C@@H]2O[C@H](CO)[C@@H](O)[C@@H]2F)cc1CCCCC[18F]	RG2 expressing HSV1-tk	–	–	2 h	relative to: HSV1-tk over wild-type RG2	uptake selectivity ratio	5.5 ± 2.3
Nc1ccc(/C=C/C(=O)NCc2cc3cc(-c4ccc(C(=O)N5CCC(F)(F)CC5)cc4)cc(-c4ccc(F)cc4)c3o2)cn1	CAKI-1	cell viability	–	–	–	EC50	0.6 µM
Cc1c(C#N)cccc1[C@@H](C)Nc1nnc(C)c2cnc(N3CCOCC3)cc12	DLD-1	ERK phosphorylation, In-Cell Western, measured: phospho-ERK	–	–	–	IC50	0.0233 ± 0.0146 µM
O=c1[nH]c(=O)n([C@@H]2O[C@H](CO)[C@@H](O)[C@@H]2F)cc1CCC[18F]	RG2 expressing HSV1-tk	–	–	2 h	relative to: HSV1-tk over wild-type RG2	uptake selectivity ratio	5 ± 0.7
CCCC(C)(C)C(=O)O	CALUX reporter cell lines	reporter gene	–	cell-total, maximum across	–	EC10	38 µM
Nc1cc(C(F)(F)F)c(-c2nc(N3CCOCC3)nc(N3CCOCC3)n2)cn1	AU565	–	–	–	–	GI50	0.32 µM
NC(=S)NN=Cc1ncccc1N	human cervical cancer cells	–	–	concentration not given, clinically attainable concentrations and times, with: cisplatin	–	cell survival	40%
CCCCC(CC)C(=O)O (stereo not shown)	CALUX reporter cell lines	reporter gene	–	cell-total, minimum across	–	EC10	7 µM
CC1(C)S[C@@H]2[C@H](NC(=O)[C@H](N)c3ccccc3)C(=O)N2[C@H]1C(=O)O	Escherichia coli	–	clinical isolate RKI-No_607/16	–	–	MIC	> 16 µg/mL
C=CCC(CCC)C(=O)O (stereo not shown)	CALUX reporter cell lines	reporter gene	–	cell-total, minimum across	–	EC10	9 µM
CO[C@]1(C(=O)N[C@@H](C)c2ccc(-n3cc(F)cn3)nc2)CC[C@H](c2nc(C)cc(Nc3cc(C)[nH]n3)n2)CC1	LC-2/AD (CCDC6-RET)	cell growth	–	–	–	GI50	0.004 µM
CCCCCC(CCC)C(=O)O (stereo not shown)	CALUX reporter cell lines	reporter gene	–	cell-total, maximum across	–	EC10	100 µM
CC(C)(C)c1nc(-c2cccc(NS(=O)(=O)c3c(F)cccc3F)c2F)c(-c2ccnc(N)n2)s1	melanoma cell line	colony formation	–	–	–	EC50	0.0095 µM
Cc1ncccc1NC(=O)c1ccc2c(c1)C(=O)C[C@@H]1C[C@@](O)(c3ccccc3)[C@H](O)C[C@@]21Cc1ccccc1	A549	TNF-alpha release	–	concentration not given	–	inhibition	60 to 80%
C[C@H]1COCCN1c1nc(-c2cnc(N)cc2C(F)F)nc(N2CCOCC2)n1	CAL-27	–	–	–	–	GI50	0.349 µM
O=S(=O)(O)O	Ehrlich ascites tumour cells	anion exchange, substrate	–	with: Cl-	–	Km	~2000 µM
CN(C)c1ccc(C(=O)N(CC(=O)NCc2ccccc2)Cc2ccc(C(=O)Nc3ccccc3N)cc2)cc1	CAL-27	cellular HDAC activity, inhibitor	–	with: Boc-Lys(ε-Ac)-AMC substrate	–	IC50	0.327 ± 0.033 µM
CCCC(C)C(=O)O (stereo not shown)	CALUX reporter cell lines	reporter gene	–	cell-total, maximum across	–	EC10	41 µM
O=c1[nH]c(=O)n([C@H]2C[C@H](O)[C@@H](CO)O2)cc1CCCCC[18F]	RG2 expressing HSV1-tk	–	–	2 h	relative to: HSV1-tk over wild-type RG2	uptake selectivity ratio	19.9 ± 6.9
Cc1ncccc1NC(=O)c1ccc2c(c1)CC[C@@H]1C[C@@](O)(C(F)(F)F)CC[C@@]21Cc1ccccc1	A549	IL-6 release	–	concentration not given	–	inhibition	60 to 80%
CCCC(CCC)C(=O)O	CALUX reporter cell lines	reporter gene	–	cell-total, minimum across	–	EC10	9 µM
O=c1[nH]c(=O)n([C@@H]2O[C@H](CO)[C@@H](O)[C@@H]2F)cc1[125I]	RG2 expressing HSV1-tk	–	–	2 h	relative to: HSV1-tk over wild-type RG2	uptake selectivity ratio	9.9 ± 4.6
C=CCCC(=O)O	CALUX reporter cell lines	reporter gene	–	cell-total, minimum across	–	EC10	38 µM
COC(=O)CC1CCN(C(=O)c2cc(-c3cccs3)nn2-c2ccccc2)CC1	human monocytes	phagocytosis of anti-D RBCs	–	5 µM, commercial sample	–	inhibition	> 69%
CCC(CC)C(=O)O	CALUX reporter cell lines	reporter gene	–	cell-total, minimum across	–	EC10	41 µM
CCOC(=O)c1nn(-c2ccccc2)c(C#N)c1NC(=O)c1nn(CC)cc1Br	human monocytes	phagocytosis of anti-D RBCs	–	5 µM, commercial sample	–	inhibition	> 69%
C[C@@H](O)[C@@H]1NC(=O)[C@H](CCCCN)NC(=O)[C@@H](Cc2c[nH]c3ccccc23)NC(=O)[C@H](Cc2ccc(O)cc2)NC(=O)[C@H](NC(=O)[C@H](Cc2ccc([N+](=O)[O-])cc2)NC(=O)CN2CCCN3CCN(CCCN(CC(=O)O)CC3)CC2)CSSC[C@@H](C(=O)N[C@H](Cc2ccc(O)cc2)C(N)=O)NC1=O [copper-64 labelled]	AR-42J rat pancreatic tumour cells	receptor binding	–	–	relative to: antagonist over agonist	Bmax ratio	> 14 fold

Some of these lines once more:
Compound	target or system	test	test system	conditions	how to read	endpoint	result
CCCC(C)(C)C(=O)O	CALUX reporter cell lines	reporter gene	–	cell-total, maximum across	–	EC10	38 µM
Nc1cc(C(F)(F)F)c(-c2nc(N3CCOCC3)nc(N3CCOCC3)n2)cn1	AU565	–	–	–	–	GI50	0.32 µM
NC(=S)NN=Cc1ncccc1N	human cervical cancer cells	–	–	concentration not given, clinically attainable concentrations and times, with: cisplatin	–	cell survival	40%
